Measured values collected from several papers.
A part holds a random share of what one study measured. Changes are numbered by the printed parent chain.
UniProt P10721, sequence (whole entry, looked up): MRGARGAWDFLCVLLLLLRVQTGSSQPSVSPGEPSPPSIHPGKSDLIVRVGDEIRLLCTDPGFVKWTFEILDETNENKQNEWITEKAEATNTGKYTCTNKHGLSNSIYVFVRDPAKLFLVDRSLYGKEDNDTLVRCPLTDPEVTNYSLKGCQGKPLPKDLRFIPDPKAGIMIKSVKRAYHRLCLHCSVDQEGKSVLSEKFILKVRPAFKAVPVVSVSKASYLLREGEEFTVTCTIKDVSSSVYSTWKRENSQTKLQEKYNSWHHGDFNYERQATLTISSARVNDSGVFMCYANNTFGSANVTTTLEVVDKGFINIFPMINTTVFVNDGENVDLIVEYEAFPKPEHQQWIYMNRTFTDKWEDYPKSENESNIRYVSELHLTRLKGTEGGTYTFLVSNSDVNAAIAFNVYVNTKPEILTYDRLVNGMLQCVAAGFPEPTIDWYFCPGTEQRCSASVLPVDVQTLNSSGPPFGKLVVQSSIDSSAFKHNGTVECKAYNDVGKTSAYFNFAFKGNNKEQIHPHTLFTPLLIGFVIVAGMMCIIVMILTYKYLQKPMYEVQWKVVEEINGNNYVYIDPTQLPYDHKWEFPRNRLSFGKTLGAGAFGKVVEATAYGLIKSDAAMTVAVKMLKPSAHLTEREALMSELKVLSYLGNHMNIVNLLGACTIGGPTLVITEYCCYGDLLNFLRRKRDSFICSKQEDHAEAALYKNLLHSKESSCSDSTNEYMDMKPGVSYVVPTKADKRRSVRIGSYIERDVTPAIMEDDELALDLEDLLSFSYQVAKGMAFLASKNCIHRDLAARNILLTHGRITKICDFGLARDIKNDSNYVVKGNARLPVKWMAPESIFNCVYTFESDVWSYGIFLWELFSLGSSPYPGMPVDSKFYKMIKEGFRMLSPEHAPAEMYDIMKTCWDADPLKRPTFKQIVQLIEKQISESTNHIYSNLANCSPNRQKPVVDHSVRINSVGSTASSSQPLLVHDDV
UniProt P43403, sequence (whole entry, looked up): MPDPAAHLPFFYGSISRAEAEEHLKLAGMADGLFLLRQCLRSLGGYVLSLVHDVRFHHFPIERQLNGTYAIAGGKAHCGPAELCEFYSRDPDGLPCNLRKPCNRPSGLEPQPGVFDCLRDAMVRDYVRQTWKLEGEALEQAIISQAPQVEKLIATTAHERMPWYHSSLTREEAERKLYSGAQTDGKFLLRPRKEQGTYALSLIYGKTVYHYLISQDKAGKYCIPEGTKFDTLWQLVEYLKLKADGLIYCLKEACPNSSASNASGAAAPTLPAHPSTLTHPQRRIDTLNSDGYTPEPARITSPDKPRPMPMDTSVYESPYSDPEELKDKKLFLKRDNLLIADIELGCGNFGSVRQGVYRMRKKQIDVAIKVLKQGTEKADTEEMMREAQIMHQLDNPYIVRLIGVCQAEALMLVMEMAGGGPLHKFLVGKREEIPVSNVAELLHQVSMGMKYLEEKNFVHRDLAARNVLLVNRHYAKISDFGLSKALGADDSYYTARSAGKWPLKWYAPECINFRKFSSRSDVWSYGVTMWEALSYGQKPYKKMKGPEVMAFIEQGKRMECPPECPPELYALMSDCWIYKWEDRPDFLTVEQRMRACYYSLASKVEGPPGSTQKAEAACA
UniProt Q9NY57, sequence (whole entry, looked up): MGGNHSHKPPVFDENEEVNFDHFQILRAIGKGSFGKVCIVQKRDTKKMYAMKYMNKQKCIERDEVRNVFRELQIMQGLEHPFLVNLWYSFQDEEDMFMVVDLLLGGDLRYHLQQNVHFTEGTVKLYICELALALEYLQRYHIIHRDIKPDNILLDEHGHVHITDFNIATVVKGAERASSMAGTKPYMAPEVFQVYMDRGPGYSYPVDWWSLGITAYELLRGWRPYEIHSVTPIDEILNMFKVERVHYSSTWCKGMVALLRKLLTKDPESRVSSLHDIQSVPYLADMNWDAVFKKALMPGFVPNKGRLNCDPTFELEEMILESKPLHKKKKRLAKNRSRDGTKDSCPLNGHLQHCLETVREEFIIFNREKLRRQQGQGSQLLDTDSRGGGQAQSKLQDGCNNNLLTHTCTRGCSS
UniProt O00444, sequence (whole entry, looked up): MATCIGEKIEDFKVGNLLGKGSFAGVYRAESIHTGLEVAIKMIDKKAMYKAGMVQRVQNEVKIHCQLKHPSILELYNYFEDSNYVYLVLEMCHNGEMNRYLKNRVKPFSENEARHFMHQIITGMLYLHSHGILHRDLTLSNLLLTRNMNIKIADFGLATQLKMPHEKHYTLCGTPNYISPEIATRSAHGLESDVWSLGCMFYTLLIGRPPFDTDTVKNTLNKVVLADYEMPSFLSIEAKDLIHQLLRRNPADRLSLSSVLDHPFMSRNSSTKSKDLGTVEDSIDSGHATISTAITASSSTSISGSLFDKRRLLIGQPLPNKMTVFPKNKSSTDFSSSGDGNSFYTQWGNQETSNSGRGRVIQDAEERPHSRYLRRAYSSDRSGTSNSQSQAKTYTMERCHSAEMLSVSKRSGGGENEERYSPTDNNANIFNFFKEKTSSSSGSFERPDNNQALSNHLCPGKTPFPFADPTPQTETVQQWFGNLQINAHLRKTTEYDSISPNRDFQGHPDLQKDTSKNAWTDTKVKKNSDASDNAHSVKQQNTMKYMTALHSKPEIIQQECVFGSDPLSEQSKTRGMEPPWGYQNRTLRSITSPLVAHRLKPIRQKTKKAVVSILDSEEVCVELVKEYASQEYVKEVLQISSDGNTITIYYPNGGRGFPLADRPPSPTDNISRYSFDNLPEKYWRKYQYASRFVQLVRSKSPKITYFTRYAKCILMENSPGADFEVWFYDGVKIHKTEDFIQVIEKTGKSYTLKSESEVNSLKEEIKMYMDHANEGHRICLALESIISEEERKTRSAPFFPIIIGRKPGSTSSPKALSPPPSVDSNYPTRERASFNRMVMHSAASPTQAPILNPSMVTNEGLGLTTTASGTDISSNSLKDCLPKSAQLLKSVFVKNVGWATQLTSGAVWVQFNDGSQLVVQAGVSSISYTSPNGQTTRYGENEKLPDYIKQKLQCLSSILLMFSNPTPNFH
UniProt O60285, sequence (whole entry, looked up): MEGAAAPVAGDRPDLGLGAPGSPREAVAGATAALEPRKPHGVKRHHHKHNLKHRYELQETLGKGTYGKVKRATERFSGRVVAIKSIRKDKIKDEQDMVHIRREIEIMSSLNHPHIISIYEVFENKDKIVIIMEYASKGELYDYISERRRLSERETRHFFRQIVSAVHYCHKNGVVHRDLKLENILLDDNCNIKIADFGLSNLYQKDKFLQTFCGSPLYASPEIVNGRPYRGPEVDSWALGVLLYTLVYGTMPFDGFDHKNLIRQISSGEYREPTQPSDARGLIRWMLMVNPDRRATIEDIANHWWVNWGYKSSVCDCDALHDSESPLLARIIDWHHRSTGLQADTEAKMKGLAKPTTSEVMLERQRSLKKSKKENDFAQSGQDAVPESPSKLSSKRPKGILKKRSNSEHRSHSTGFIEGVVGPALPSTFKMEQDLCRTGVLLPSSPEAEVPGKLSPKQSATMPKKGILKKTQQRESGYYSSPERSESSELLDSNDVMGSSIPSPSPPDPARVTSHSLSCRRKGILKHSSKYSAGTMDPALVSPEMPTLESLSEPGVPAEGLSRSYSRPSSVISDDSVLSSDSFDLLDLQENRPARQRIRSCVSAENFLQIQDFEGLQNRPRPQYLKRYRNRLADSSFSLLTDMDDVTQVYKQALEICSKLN
UniProt Q86UE8, sequence (whole entry, looked up): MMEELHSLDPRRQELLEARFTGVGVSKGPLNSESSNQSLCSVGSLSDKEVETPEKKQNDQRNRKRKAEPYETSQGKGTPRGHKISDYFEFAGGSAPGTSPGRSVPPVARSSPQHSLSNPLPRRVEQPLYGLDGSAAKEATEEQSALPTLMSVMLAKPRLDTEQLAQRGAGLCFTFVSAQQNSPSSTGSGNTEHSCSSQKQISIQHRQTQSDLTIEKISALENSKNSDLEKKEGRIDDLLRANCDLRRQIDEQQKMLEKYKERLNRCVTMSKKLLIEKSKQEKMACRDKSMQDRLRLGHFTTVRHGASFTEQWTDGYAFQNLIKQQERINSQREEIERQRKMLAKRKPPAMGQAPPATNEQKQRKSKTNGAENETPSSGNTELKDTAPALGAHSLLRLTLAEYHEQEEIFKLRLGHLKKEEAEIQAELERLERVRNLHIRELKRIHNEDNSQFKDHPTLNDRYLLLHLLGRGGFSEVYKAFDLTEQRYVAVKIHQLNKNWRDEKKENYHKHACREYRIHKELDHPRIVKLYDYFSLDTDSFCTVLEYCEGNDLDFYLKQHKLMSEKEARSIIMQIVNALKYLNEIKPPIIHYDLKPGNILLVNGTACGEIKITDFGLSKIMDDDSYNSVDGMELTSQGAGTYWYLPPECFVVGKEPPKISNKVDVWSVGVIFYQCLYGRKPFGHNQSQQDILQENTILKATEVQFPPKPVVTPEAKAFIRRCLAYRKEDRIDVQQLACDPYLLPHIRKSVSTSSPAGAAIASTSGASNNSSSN

Series 1
Target: ABI1, truncated, D143A, DHFR fusion (Arabidopsis thaliana, UniProt P49597)
Method: DHFR PCA, dose-response
Matrix: yeast
Notes: Hill fit, not affinity
With: (+)-ABA, dose series
Direction: lower = more sensitive
Quantity: ABA EC50
Starting sequence: PYL1, truncated, DHFR fusion (Arabidopsis thaliana, UniProt Q8VZS8); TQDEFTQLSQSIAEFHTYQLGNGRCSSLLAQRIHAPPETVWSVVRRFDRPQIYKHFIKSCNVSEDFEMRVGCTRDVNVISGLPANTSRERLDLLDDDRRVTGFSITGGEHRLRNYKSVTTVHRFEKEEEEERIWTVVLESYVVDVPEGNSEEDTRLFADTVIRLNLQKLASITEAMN
T120S: 2.26 µM
Q2V: 9.09 µM
S9K: 29.8 µM
T120C: 2220 µM
N77T: 2.26 µM
K126C: 1.39 µM

Series 2
SMILES: Nc1cnc(N2CCc3cc(S(=O)(=O)Nc4c(F)cc(Cl)cc4F)cc(N4CCCC4=O)c32)nc1
Read-out: cell-free assay
Method: competition with immobilised ligand
Concentration: 1 µM
Quantity: remaining binding
Serine/threonine-protein kinase PLK4 (PLK4, Homo sapiens, UniProt O00444): 100%
NUAK family SNF1-like kinase 1 (NUAK1, Homo sapiens, UniProt O60285): 100%
Cyclin-dependent kinase-like 2 (CDKL2, Homo sapiens, UniProt Q92772): 85%
Receptor-type tyrosine-protein kinase FLT3 (FLT3, Homo sapiens, UniProt P36888, F691L/ITD): 96%
Mitogen-activated protein kinase kinase kinase 12 (MAP3K12, Homo sapiens, UniProt Q12852): 100%
Protein kinase C iota type (PRKCI, Homo sapiens, UniProt P41743): 100%
Tyrosine-protein kinase ZAP-70 (ZAP70, Homo sapiens, UniProt P43403): 85%
Serine/threonine-protein kinase 32B (STK32B, Homo sapiens, UniProt Q9NY57): 74%
Serine/threonine-protein kinase tousled-like 2 (TLK2, Homo sapiens, UniProt Q86UE8): 79%
Myosin light chain kinase (MYLK3, Homo sapiens, UniProt Q32MK0): 100%
Mitogen-activated protein kinase 8 (MAPK8, Homo sapiens, UniProt P45983): 78%
Serine/threonine-protein kinase WNK1 (WNK1, Homo sapiens, UniProt Q9H4A3): 100%
Phosphatidylinositol 4-phosphate 5-kinase type-1 gamma (PIP5K1C, Homo sapiens, UniProt O60331): 75%
Mast/stem cell growth factor receptor Kit, autoinhibited (KIT, Homo sapiens, UniProt P10721): 100%
Mitogen-activated protein kinase kinase kinase 20 (MAP3K20, Homo sapiens, UniProt Q9NYL2): 95%
Phosphatidylinositol 4,5-bisphosphate 3-kinase catalytic subunit alpha isoform (PIK3CA, Homo sapiens, UniProt P42336, I800L): 80%
Rhodopsin kinase GRK1 (GRK1, Homo sapiens, UniProt Q15835): 100%
Tyrosine-protein kinase Fgr (FGR, Homo sapiens, UniProt P09769): 100%
Serine/threonine-protein kinase ULK1 (ULK1, Homo sapiens, UniProt O75385): 95%
Atypical kinase COQ8A, mitochondrial (COQ8A, Homo sapiens, UniProt Q8NI60): 100%

Series 3
Target: Mitogen-activated protein kinase kinase kinase 8 (MAP3K8, Homo sapiens, UniProt P41279)
UniProt P41279, sequence (whole entry, looked up): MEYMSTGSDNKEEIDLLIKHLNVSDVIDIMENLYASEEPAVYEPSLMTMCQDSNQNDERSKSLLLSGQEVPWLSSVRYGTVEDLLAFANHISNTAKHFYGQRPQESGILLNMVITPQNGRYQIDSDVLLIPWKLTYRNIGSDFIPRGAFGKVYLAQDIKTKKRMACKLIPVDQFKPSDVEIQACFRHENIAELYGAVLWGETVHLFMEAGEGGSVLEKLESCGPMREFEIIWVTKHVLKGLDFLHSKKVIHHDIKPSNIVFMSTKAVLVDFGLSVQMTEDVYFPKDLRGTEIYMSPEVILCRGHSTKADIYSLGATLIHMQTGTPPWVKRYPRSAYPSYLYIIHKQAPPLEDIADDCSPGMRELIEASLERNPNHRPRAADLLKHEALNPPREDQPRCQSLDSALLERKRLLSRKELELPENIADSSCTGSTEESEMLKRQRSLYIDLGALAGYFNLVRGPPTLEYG
Read-out: enzyme activity
Action: inhibitor
Concentration: 0.5 µM
Reference: control
Quantity: remaining activity
O=S(=O)(c1cccc2cnccc12)N1CCCNCC1: 91.8%
Nc1ncnc2n[nH]c(Nc3ccc(F)cc3)c12: 99.7%
O=C1NC(=O)C(c2cn(CCCn3ccnc3)c3ccccc23)=C1Nc1ccccc1: 100%
O=C(CCCc1ccc(-c2ccccc2F)cc1)Nc1ccc(O)cc1: 101%
CN(C)c1ccc(C=C2C(=O)Nc3ccccc32)cc1: 99.6%
O=C1NC(=O)C(c2cn(CCCO)c3ncccc23)=C1c1cnccn1: 97%
COc1cc2ncnc(Nc3ccc(F)c(Cl)c3)c2cc1OCCCN1CCOCC1: 95.7%
C#Cc1cccc(Nc2ncnc3cc(OCCOC)c(OCCOC)cc23)c1: 91.8%
COc1ccc(CNC(=O)Nc2ncc([N+](=O)[O-])s2)cc1: 96.2%
COc1cc2ncnc(Nc3ccc(Oc4ccccc4)cc3)c2cc1OC: 68.9%
Cc1ccc(NC(=O)c2ccc(CN3CCN(C)CC3)cc2)cc1Nc1nc(-c2cccnc2)cs1: 91.5%
Nc1[nH]nc2nc3ccccc3nc12: 81.3%
O=C(O)c1ccc2c3c1cccc3c(=O)n1c3ccccc3nc21: 88.3%
Cc1ccc(Nc2nccc(N(C)c3ccc4c(C)n(C)nc4c3)n2)cc1S(N)(=O)=O: 95.2%
O=c1c2ccccc2[nH]c(=S)n1CCN1CCC(=C(c2ccc(F)cc2)c2ccc(F)cc2)CC1: 100%

Series 4
Target: TAR DNA-binding protein 43, full length, His tag (TARDBP, Homo sapiens, UniProt Q13148, residues 1-414)
Method: RNA Bind-n-Seq
Form: RNA
Matrix: in vitro
Concentration: 20 nM
Notes: 6-mer, flanks averaged, single round
With: 150 mM KCl
Reference: input library
Direction: higher = stronger binding
Quantity: 6-mer enrichment (R)
GUACUG: 0.87
CUUAGU: 0.606
UGGACG: 1.51
AAGAUC: 0.597
AUAGUG: 0.932
GUUCGC: 0.749
UGCUGA: 0.793
UGAUGC: 0.798

Repeated from above (series 2):
Cyclin-dependent kinase-like 2 (CDKL2, Homo sapiens, UniProt Q92772): 85%
Receptor-type tyrosine-protein kinase FLT3 (FLT3, Homo sapiens, UniProt P36888, F691L/ITD): 96%
Mitogen-activated protein kinase kinase kinase 12 (MAP3K12, Homo sapiens, UniProt Q12852): 100%
Protein kinase C iota type (PRKCI, Homo sapiens, UniProt P41743): 100%
Tyrosine-protein kinase ZAP-70 (ZAP70, Homo sapiens, UniProt P43403): 85%
